Assay results collected from several papers.
Organism: Pseudomonas aeruginosa

Structure (SMILES)	assay	system	setting	MIC
CCCCCCCC(=O)N[C@@H](CCN)C(=O)N[C@H](C(=O)N[C@@H](CCN)C(=O)N[C@H]1CCNC(=O)[C@H]([C@@H](C)O)NC(=O)[C@H](CCN)NC(=O)[C@H](CCN)NC(=O)[C@H](CC(C)C)NC(=O)[C@@H](Cc2ccccc2)NC(=O)[C@H](CCN)NC1=O)[C@@H](C)O	broth microdilution	colistin-resistant isolates	–	8 to 16 µg/mL
CC[C@H](C)[C@H](NC(=O)[C@@H](CCCNC(=N)N)NC(=O)[C@H](CCCNC(=N)N)NC(=O)[C@H](Cc1c[nH]c2ccccc12)NC(=O)[C@H](Cc1c[nH]c2ccccc12)NC(=O)[C@H](CCCNC(=N)N)NC(=O)[C@@H]1CCCN1C(=O)[C@H](CCCNC(=N)N)NC(=O)[C@@H]1CCCN1C(=O)[C@H](CC(C)C)NC(=O)[C@H](Cc1ccc(O)cc1)NC(=O)[C@@H]1CCCN1C(=O)[C@@H]1CCCN1C(=O)[C@H](CCCCN)NC(=O)[C@H](CC(=O)O)NC(=O)[C@@H](N)C(C)C)C(=O)N[C@@H](Cc1ccc(O)cc1)C(=O)N[C@@H](CC(N)=O)C(=O)N[C@H](CCCNC(=N)N)C(N)=O	broth microdilution	DSM 1117	18 h, 37 °C, 25% MHB2	64 µg/mL
CN[C@H](CC(C)C)C(=O)N[C@H]1C(=O)N[C@@H](CC(N)=O)C(=O)N[C@H]2C(=O)N[C@H]3C(=O)N[C@H](C(=O)N[C@H](C(=O)NCc4cn(CCCCC(=O)N[C@H](C(=O)N[C@@H](CCN)C(=O)N[C@H]5CCNC(=O)[C@H]([C@@H](C)O)NC(=O)[C@H](CCN)NC(=O)[C@H](CCN)NC(=O)[C@H](CC(C)C)NC(=O)[C@@H](CC(C)C)NC(=O)[C@H](CCN)NC5=O)[C@@H](C)O)nn4)c4cc(O)cc(O)c4-c4cc3ccc4O)[C@H](O)c3ccc(c(Cl)c3)Oc3cc2cc(c3O[C@@H]2O[C@H](CO)[C@@H](O)[C@H](O)[C@H]2O[C@H]2C[C@](C)(N)[C@H](O)[C@H](C)O2)Oc2ccc(cc2Cl)[C@H]1O	broth microdilution	ATCC 13883, cation-adjusted Mueller-Hinton broth	–	13 µM
CC(C)C[C@@H](NC(=O)[C@@H](CCCNC(=N)N)NC(=O)[C@H](N)CCCNC(=N)N)C(=O)N[C@H](CC(C)C)C(=O)N[C@H](CCCNC(=N)N)C(=O)N[C@H](CCCCN)C(=O)N[C@H](CC(C)C)C(=O)N[C@H](CCCCN)C(=O)NCC(=O)N[C@H](CCCCN)C(=O)N[C@H](CCCCN)C(=O)N[C@H](CC(C)C)C(=O)N[C@H](Cc1ccc(O)cc1)C(=O)N[C@H](CC(C)C)C(=O)N[C@H](Cc1ccc(O)cc1)C(=O)N[C@H](Cc1ccccc1)C(=O)N[C@H](CCCCN)C(=O)N[C@H](CC(C)C)C(=O)N[C@H](CCC(N)=O)C(=O)N[C@H](CC(C)C)C(=O)N[C@H](CC(C)C)C(=O)N[C@H](CCCCN)C(=O)N[C@H](CCCCN)C(N)=O	–	KCTC 1637, Mueller-Hinton broth	24 h	2 µM
CCn1c(-c2ccc(OC)cc2)c(-c2ccc(OC)cc2)n(CC)c1=[Se]	broth microdilution	carbapenem-resistant BAA-2108	24 h	> 40 µM
C#CCOc1ccc(CN[C@@]2(C)C[C@H](O[C@H]3[C@H](Oc4c5cc6cc4Oc4ccc(cc4Cl)[C@@H](O)[C@@H](NC(=O)[C@@H](CC(C)C)NC)C(=O)N[C@@H](CC(N)=O)C(=O)N[C@H]6C(=O)N[C@H]4C(=O)N[C@H](C(=O)N[C@H](C(=O)N[C@@H](CCCNC(=N)N)C(N)=O)c6cc(O)cc(O)c6-c6cc4ccc6O)[C@H](O)c4ccc(c(Cl)c4)O5)O[C@H](CO)[C@@H](O)[C@@H]3O)O[C@@H](C)[C@H]2O)cc1OC	broth microdilution	ATCC 27853, cation-adjusted Mueller-Hinton broth	18 to 20 h, 37 °C, 0.002% polysorbate 80	> 128 µg/mL
CC(C)C[C@H](NC(=O)[C@H](CCCNC(=N)N)NC(=O)[C@H](C)NC(=O)[C@H](CC(C)C)NC(=O)[C@H](CCCNC(=N)N)NC(=O)[C@H](C)NC(=O)[C@H](CCCCN)NC(=O)[C@H](CC(C)C)NC(=O)[C@H](CCCNC(=N)N)NC(=O)[C@H](Cc1ccc(O)cc1)NC(=O)[C@H](CC(C)C)NC(=O)[C@H](CCCNC(=N)N)NC(=O)[C@H](C)NC(=O)[C@H](CCCNC(=N)N)NC(=O)[C@H](CC(C)C)NC(=O)[C@H](CCCCN)NC(=O)[C@H](C)NC(=O)[C@H](CC(C)C)NC(=O)[C@H](CCCNC(=N)N)NC(=O)[C@H](C)NC(=O)[C@@H](N)CCCCN)C(N)=O	–	ATCC 27853	24 h	4 µM
CN[C@H](CC(C)C)C(=O)N[C@H]1C(=O)N[C@@H](CC(N)=O)C(=O)N[C@H]2C(=O)N[C@H]3C(=O)N[C@H](C(=O)N[C@H](C(=O)O)c4cc(O)cc(O)c4-c4cc3ccc4O)[C@H](O)c3ccc(c(Cl)c3)Oc3cc2cc(c3O[C@@H]2O[C@H](CO)[C@@H](O)[C@H](O)[C@H]2O[C@H]2C[C@](C)(NCc3ccc(OCc4cn(CCCCC(=O)N[C@H](C(=O)N[C@@H](CCN)C(=O)N[C@H]5CCNC(=O)[C@H]([C@@H](C)O)NC(=O)[C@H](CCN)NC(=O)[C@H](CCN)NC(=O)[C@H](CC(C)C)NC(=O)[C@@H](CC(C)C)NC(=O)[C@H](CCN)NC5=O)[C@@H](C)O)nn4)c(OC)c3)[C@H](O)[C@H](C)O2)Oc2ccc(cc2Cl)[C@H]1O	broth microdilution	ATCC 13883, cation-adjusted Mueller-Hinton broth	–	3 µM
CN[C@@H]1[C@H](O)[C@H](NC)[C@H]2O[C@]3(O)[C@H](O[C@@H]2[C@H]1O)O[C@H](C)C[C@H]3NC(=O)Cc1ccc(F)cn1	microbial growth, broth dilution	PAO1	–	> 200 µg/mL

Excerpt of the above:
Structure (SMILES)	assay	system	setting	MIC
CCCCCCCC(=O)N[C@@H](CCN)C(=O)N[C@H](C(=O)N[C@@H](CCN)C(=O)N[C@H]1CCNC(=O)[C@H]([C@@H](C)O)NC(=O)[C@H](CCN)NC(=O)[C@H](CCN)NC(=O)[C@H](CC(C)C)NC(=O)[C@@H](Cc2ccccc2)NC(=O)[C@H](CCN)NC1=O)[C@@H](C)O	broth microdilution	colistin-resistant isolates	–	8 to 16 µg/mL
